Experimental data of several laboratories.
Parts stem from different laboratories: compare values within a part only. “And” joins repeats or separate records; there may be more than shown.
Chain of UniProt P10398 (whole entry, looked up): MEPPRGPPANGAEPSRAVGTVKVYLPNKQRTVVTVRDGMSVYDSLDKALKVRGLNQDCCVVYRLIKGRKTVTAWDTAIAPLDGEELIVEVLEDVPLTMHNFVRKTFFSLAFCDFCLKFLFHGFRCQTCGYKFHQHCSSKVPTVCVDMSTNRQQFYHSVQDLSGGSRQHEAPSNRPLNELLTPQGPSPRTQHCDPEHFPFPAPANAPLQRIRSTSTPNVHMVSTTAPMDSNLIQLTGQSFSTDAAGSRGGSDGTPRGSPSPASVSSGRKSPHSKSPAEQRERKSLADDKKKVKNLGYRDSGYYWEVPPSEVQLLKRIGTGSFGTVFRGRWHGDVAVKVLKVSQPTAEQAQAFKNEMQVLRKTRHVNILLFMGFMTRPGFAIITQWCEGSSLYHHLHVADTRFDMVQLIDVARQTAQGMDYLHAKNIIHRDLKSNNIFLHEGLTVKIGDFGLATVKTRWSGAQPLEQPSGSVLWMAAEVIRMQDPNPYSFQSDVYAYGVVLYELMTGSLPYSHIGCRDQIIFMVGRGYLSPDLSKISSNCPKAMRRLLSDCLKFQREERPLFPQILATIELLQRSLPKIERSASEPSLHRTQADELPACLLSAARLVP
Chain of UniProt Q9H4A3 (whole entry, looked up): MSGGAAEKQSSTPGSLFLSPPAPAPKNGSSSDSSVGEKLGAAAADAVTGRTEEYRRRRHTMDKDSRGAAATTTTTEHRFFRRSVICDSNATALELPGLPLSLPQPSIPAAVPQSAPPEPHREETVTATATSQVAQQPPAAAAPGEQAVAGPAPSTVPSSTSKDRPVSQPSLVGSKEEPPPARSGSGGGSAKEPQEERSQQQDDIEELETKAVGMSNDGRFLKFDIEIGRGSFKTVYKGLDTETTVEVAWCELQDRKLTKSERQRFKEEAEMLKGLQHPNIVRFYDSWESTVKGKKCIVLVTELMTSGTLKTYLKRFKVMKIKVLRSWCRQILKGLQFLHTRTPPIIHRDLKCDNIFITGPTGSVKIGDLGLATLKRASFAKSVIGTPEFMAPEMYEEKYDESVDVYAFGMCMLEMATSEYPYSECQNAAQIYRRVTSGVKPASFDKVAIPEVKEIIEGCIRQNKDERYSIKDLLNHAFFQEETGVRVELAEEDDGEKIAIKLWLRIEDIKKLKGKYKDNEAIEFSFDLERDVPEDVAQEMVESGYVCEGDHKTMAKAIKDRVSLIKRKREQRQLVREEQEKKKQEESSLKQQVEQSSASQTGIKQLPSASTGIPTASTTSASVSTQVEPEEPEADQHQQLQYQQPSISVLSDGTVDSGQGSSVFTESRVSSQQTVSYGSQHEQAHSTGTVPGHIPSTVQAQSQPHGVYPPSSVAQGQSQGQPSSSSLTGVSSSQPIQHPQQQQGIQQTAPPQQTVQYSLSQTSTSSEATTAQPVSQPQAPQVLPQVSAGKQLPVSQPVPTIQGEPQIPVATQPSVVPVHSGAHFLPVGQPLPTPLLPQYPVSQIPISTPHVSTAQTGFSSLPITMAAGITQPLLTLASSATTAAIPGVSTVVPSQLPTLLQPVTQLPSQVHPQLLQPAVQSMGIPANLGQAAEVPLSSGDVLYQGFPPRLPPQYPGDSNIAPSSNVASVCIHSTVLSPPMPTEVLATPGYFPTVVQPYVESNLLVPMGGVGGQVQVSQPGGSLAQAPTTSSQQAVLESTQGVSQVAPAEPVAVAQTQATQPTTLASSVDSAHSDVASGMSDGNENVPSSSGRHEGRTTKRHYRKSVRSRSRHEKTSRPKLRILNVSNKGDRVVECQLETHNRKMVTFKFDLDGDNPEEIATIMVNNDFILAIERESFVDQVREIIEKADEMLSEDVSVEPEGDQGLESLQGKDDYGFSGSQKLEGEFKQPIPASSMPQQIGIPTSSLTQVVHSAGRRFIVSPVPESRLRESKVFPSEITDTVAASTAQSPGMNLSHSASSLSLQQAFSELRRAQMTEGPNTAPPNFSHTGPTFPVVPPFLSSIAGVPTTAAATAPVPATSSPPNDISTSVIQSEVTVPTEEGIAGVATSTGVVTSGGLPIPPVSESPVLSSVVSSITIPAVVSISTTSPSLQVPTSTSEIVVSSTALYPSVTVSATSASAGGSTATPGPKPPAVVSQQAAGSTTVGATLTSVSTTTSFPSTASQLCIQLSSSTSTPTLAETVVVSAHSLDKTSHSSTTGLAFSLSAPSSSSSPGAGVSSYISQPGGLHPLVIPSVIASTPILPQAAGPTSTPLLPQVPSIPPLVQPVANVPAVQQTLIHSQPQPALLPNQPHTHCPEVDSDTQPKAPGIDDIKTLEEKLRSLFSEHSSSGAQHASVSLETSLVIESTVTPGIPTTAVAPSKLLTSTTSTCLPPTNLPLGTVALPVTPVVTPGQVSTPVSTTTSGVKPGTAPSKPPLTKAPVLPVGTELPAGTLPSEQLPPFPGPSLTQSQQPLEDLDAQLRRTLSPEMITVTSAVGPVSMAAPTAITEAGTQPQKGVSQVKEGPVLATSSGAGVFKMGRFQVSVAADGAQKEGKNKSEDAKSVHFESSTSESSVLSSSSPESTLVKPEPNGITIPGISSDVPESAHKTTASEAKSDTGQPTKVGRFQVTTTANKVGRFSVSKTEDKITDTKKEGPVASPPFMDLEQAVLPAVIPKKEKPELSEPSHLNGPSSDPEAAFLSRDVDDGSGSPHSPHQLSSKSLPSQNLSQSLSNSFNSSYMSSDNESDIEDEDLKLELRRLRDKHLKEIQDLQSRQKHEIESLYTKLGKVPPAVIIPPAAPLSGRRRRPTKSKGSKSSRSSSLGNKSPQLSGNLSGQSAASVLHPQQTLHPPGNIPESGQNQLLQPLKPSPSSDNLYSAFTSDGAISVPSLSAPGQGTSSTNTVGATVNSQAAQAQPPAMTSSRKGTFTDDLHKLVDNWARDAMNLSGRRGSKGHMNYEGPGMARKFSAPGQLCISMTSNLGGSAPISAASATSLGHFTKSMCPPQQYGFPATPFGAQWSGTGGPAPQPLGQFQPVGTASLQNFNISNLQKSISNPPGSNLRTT
Chain of UniProt P78368 (whole entry, looked up): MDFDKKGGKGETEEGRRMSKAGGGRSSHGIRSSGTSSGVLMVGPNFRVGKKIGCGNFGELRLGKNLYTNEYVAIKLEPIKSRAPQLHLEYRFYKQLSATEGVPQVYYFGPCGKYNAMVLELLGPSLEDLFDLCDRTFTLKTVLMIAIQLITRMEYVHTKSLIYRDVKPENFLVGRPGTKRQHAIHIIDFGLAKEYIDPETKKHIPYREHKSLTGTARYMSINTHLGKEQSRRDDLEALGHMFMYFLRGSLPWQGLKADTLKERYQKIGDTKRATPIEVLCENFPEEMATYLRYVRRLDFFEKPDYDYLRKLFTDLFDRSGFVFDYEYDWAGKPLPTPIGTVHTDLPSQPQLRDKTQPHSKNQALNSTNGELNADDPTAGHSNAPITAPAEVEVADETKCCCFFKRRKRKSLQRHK
Chain of UniProt Q99683 (whole entry, looked up): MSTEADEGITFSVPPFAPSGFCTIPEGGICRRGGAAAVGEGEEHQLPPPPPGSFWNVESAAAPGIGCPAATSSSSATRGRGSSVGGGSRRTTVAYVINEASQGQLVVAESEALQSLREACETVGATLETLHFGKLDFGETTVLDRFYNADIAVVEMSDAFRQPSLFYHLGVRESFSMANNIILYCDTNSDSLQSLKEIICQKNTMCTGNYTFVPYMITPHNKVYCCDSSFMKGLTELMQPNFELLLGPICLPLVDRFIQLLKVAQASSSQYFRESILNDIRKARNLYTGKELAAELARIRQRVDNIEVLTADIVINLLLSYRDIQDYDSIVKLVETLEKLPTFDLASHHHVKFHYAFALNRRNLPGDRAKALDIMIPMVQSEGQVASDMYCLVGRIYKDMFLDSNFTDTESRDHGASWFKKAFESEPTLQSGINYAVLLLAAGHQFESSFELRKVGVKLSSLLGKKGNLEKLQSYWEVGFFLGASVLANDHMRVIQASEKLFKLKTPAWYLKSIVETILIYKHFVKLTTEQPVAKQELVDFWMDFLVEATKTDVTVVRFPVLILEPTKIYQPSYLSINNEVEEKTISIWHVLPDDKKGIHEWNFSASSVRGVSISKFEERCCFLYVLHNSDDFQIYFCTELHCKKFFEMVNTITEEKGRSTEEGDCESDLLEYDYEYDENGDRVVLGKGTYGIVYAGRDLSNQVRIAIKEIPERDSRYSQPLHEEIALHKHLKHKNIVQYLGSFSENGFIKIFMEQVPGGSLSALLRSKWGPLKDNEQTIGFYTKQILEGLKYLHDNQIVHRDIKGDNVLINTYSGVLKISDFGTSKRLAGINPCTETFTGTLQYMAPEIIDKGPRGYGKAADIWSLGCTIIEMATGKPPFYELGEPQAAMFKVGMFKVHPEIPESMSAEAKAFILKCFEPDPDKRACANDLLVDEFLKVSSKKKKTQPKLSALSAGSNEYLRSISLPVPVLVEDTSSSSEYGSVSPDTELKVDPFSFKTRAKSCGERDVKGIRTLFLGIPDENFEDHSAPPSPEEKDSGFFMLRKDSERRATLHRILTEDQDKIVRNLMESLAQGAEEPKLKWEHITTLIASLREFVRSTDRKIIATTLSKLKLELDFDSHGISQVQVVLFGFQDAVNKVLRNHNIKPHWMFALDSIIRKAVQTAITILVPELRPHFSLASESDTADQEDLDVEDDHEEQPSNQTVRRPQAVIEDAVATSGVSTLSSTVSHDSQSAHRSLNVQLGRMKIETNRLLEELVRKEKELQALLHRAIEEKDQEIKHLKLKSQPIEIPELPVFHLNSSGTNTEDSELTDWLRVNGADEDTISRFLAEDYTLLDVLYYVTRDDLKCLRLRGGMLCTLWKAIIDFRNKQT

Block 1
Structure (SMILES): C[C@H](c1ccnc(Nc2nc3ccc(-c4cc(N(C)C)ncn4)cc3[nH]2)c1)N1CCN(C(=O)CC(F)(F)F)CC1
Read-out: cell-free assay
Technique: competition with immobilised ligand
Tested at: 0.1 µM
Measurement: remaining binding
Serine/threonine-protein kinase 26 (STK26, Homo sapiens, UniProt Q9P289): 100%
Serine/threonine-protein kinase WNK1 (WNK1, Homo sapiens, UniProt Q9H4A3): 100%
Tyrosine-protein kinase FRK (FRK, Homo sapiens, UniProt P42685): 92%
Myosin light chain kinase (MYLK3, Homo sapiens, UniProt Q32MK0): 100%
Phosphatidylinositol 4-kinase beta (PI4KB, Homo sapiens, UniProt Q9UBF8): 100%
High affinity nerve growth factor receptor (NTRK1, Homo sapiens, UniProt P04629): 79%
RAC-beta serine/threonine-protein kinase (AKT2, Homo sapiens, UniProt P31751): 100%

Block 2
Structure (SMILES): Nc1cccc(-c2cc3c(Oc4cccc(O)c4)ncnc3[nH]2)c1
Read-out: enzyme activity
Action: inhibitor
Tested at: 0.5 µM
Baseline: control
Measurement: remaining activity
Serine/threonine-protein kinase TAO2 (TAOK2, Homo sapiens, UniProt Q9UL54): 81.4%
Tyrosine-protein kinase Mer (MERTK, Homo sapiens, UniProt Q12866): 63.8%
Rhodopsin kinase GRK7 (GRK7, Homo sapiens, UniProt Q8WTQ7): 102%
Tyrosine-protein kinase ABL2 (ABL2, Homo sapiens, UniProt P42684): 1.4%
Casein kinase I isoform gamma-2 (CSNK1G2, Homo sapiens, UniProt P78368): 84.9%
Activin receptor type-1B (ACVR1B, Homo sapiens, UniProt P36896): 122%
MAP kinase-activated protein kinase 2 (MAPKAPK2, Homo sapiens, UniProt P49137): 108%
Fibroblast growth factor receptor 1 (FGFR1, Homo sapiens, UniProt P11362): 39.3%
Macrophage-stimulating protein receptor (MST1R, Homo sapiens, UniProt Q04912): 103%
Ephrin type-A receptor 3 (EPHA3, Homo sapiens, UniProt P29320): 39.7%
Serine/threonine-protein kinase A-Raf (ARAF, Homo sapiens, UniProt P10398): 57.3%
Mitogen-activated protein kinase kinase kinase 14 (MAP3K14, Homo sapiens, UniProt Q99558): 69.6%
Mitogen-activated protein kinase kinase kinase 5 (MAP3K5, Homo sapiens, UniProt Q99683): 94.9%

Block 3
Host: human
Matrix: microsomes or S9
Tested at: 2 µM
Time: 0.5 h
Measurement: remaining compound
Cc1c(Cl)cccc1NC(=O)Cn1c2c(c(=O)n3nc(-c4ccccc4)nc13)CCC2: 36.5%
Cc1ncc(CN(C)c2nnc(C)c(C)c2C#N)s1: 71.5%
Cc1c(C)n(C2CCCCC2)c2ncn(CCCO)c(=N)c12: > 99%
CC(=O)O[C@@H]1CC2C(C)(CC[C@H](O)C2(C)C)C2CC[C@]3(C)C(=CC(=O)O[C@H]3c3ccoc3)C21C (some centres unmarked): 20.6%
Cn1c(=O)nc(O)c2c1nc(NCCN)n2CC(O)COc1ccccc1 (centres unmarked): 82.3%
CCOC(=O)c1[nH]c(C)c(C(=O)CN(CC(C)C)S(=O)(=O)c2ccc(F)cc2)c1C: 0%

Block 4
Cell line: mouse MPNST tumor cells
Technique: high-content nuclear imaging
Refers to: cell number
Tested at: 10 µM
Time: 12 h
Setting: mean of 2 replicates
Baseline: plate mean
Reading: higher = more cells
Measurement: nuclei count
Cc1cc(C)c2nc(-c3ccccn3)cc(C(=O)Nc3ccc(S(=O)(=O)Nc4onc(C)c4C)cc3)c2c1: 1.16 z-score
Clc1ccc2c(c1)C(N1CCNCC1)=Nc1ccccc1O2: -2.72 z-score and -3.57 z-score
O=C(Cc1ccccc1)Nc1nc2ccc(Cl)cc2c2nc(-c3ccco3)nn12: 1.68 z-score

Some of these lines once more (block 3):
Cn1c(=O)nc(O)c2c1nc(NCCN)n2CC(O)COc1ccccc1 (centres unmarked): 82.3%
Cc1c(Cl)cccc1NC(=O)Cn1c2c(c(=O)n3nc(-c4ccccc4)nc13)CCC2: 36.5%
Cc1ncc(CN(C)c2nnc(C)c(C)c2C#N)s1: 71.5%
CCOC(=O)c1[nH]c(C)c(C(=O)CN(CC(C)C)S(=O)(=O)c2ccc(F)cc2)c1C: 0%
